Assay results pooled from the literature.
Lines come from different studies, so protocols differ. “And” joins repeats or separate records; there may be more than shown. ± marks the error that the study gave. Converted amounts (≈) assume the structure as drawn.
Sequence of UniProt P11388 (whole entry, looked up): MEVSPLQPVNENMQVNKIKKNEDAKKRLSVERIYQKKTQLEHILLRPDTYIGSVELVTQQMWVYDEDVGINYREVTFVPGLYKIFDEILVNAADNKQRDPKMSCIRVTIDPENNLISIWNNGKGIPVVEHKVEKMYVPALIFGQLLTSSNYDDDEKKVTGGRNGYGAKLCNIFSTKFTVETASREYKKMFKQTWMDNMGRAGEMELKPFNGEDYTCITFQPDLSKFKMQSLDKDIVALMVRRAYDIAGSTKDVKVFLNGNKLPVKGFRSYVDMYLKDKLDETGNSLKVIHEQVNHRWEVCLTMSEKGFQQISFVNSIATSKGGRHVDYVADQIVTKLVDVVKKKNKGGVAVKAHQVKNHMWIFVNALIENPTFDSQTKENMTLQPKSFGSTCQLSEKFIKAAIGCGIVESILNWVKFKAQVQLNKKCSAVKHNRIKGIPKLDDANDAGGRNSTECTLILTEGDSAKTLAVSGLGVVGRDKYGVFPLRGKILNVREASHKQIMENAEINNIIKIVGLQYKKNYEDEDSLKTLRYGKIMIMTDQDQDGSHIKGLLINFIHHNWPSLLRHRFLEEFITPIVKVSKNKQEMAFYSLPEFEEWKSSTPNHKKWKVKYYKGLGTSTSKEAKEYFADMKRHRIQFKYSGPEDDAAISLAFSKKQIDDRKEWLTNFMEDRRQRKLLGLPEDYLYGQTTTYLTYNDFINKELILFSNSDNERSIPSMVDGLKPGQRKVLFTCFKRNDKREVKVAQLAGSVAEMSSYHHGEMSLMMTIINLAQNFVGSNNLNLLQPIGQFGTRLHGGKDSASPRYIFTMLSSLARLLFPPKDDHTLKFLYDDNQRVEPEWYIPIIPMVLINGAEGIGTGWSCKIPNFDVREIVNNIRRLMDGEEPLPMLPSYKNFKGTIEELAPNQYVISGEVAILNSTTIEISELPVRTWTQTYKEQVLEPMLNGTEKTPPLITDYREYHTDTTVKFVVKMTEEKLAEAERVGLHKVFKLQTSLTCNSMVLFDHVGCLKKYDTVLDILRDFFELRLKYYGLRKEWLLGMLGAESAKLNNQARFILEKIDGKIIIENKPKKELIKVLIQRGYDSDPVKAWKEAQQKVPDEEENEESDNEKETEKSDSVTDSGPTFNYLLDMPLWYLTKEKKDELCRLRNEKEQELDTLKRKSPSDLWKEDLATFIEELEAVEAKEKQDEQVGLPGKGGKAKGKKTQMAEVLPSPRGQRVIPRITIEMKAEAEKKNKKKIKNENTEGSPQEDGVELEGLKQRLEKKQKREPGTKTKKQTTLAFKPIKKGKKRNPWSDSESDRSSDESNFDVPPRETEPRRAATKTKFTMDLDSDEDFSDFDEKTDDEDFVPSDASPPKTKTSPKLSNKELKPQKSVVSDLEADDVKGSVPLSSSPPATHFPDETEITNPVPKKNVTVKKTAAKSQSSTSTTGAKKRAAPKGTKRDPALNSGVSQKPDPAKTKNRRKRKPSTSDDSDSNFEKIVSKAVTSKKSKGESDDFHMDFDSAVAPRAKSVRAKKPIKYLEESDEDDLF

Under compound level, `CC1COc2ccccc2N1C(=O)C(Cl)Cl` (stereo not shown) is recorded as “decreased” (carboxylesterase depletion, substrate; Sprague Dawley rat, male, rat liver microsomes; dose not given, 30 min, without NADPH; reference: inactive microsomes).
`Fc1ccccc1Cc1nc(-c2nc(C(F)(F)F)n[nH]2)cn2ccnc12` — result for “subjects with eye TEAEs”: 7.7% (healthy human subjects, both sexes; oral, 10 mg, fed).
The -TΔS of `OC[C@H]1O[C@@H](O[C@@H]2[C@@H](O)[C@H](O[C@@H]3[C@@H](O)[C@H](O[C@@H]4[C@@H](O)[C@H](O[C@@H]5[C@@H](O)[C@H](O[C@H]6[C@H](O)[C@@H](CO)OC(O)[C@@H]6O)O[C@H](CO)[C@H]5O)O[C@H](CO)[C@H]4O)O[C@H](CO)[C@H]3O)O[C@H](CO)[C@H]2O)[C@H](O)[C@@H](O)[C@@H]1O` (stereo partly shown) is reported as 138 kJ/mol (uncharacterized protein (Bacteroides thetaiotaomicron, UniProt A0A173VPY3); ITC; pH 7.0, 25 °C).
`CC(C)c1nc(N(C)S(C)(=O)=O)nc(-c2ccc(F)cc2)c1/C=C/[C@@H](O)C[C@@H](O)CC(=O)O` — result for “subjects with adverse event”: 0% (refers to: injury, poisoning, procedural complications; healthy men; oral, dose not given, 8 days, treatment-emergent, crossover trial).
For `COC(=O)Nc1c(N)nc(-c2nn(Cc3ccccc3F)c3ncc(F)cc23)nc1N`, the Cmax ratio was 0.911 (healthy men; oral, 10 mg daily, multiple dose, together with: sildenafil 50 mg; reference: with over without sildenafil).
The remaining compound of `O=C1CC2(CCCC2)CC(=O)N1CCCCN1CCN(c2ncccn2)CC1` is reported as 2.29 ± 0.95% (human liver microsomes; 10 µM, 30 min).
The CC50 of `[H]/N=C(/N)N/C(=N/[H])NCCc1ccccc1` is reported as > 100 µM (primary human hepatocytes; refers to: ATP; 4 h).
For `N#CCC1CCN(c2nc(Nc3ccc(N4CCC(O)CC4)cc3)c3c(=O)[nH]ncc3n2)CC1`, “serum level change” read -1.02 (Olink multiplex, refers to: CDCP1; human, serum; 20 mg, day 29, unit not given; reference: placebo).
`CC1COc2ccccc2N1C(=O)C(Cl)Cl` (stereo not shown) gave an enantiomeric fraction of 0.25 (carboxylesterase hydrolysis; rhesus monkey, female, liver microsomes; 5 µM, 30 min, pH 7.4, without NADPH).
Under “injury or procedural TEAEs”, `Cc1cc(-c2nccc3c2ccn3CC(=O)Nc2ccc(-c3cnccn3)cn2)ccn1` is recorded as 25% (healthy human volunteers; oral, 5 mg once daily, 14 days, multiple ascending dose).
With `COC(=O)Nc1c(N)nc(-c2nn(Cc3ccccc3F)c3ncc(F)cc23)nc1N` the AUC ratio was 0.678 (healthy male humans, plasma; 5 mg, single dose, fasting, together with: omeprazole 40 mg daily; reference: with over without co-treatment).
`CCn1c(=O)c(-c2cc(NC(=O)Nc3ccccc3)c(F)cc2Br)cc2cnc(NC)cc21` — result for “patients with grade 3+ TEAE”: 0% (refers to: injury and poisoning; healthy, matched to severe impairment; 50 mg single dose).
Under “subjects with adverse event”, `CC(C)(C(=O)N1CCOc2c(C#N)cncc2C1)C(F)F` is recorded as 0% (refers to: injury, poisoning, procedural complications; human; oral, 20 mg once daily, 14 days, multiple ascending dose).
For `O=C(Nc1nc2cccc(-c3ccc(CN4CCS(=O)(=O)CC4)cc3)n2n1)C1CC1`, “patients with adverse event” read 0% (refers to: injury or procedural complication; rheumatoid arthritis patients; oral, 75 mg once daily, 4 weeks, any relatedness).
With `COc1cc([C@@H]2c3cc4c(cc3[C@@H](O[C@@H]3O[C@@H]5CO[C@@H](C)O[C@H]5[C@H](O)[C@H]3O)[C@H]3COC(=O)[C@H]23)OCO4)cc(OC)c1O` the relaxed DNA was 77.5% and 100% and 65.1% and 99.5% (DNA topoisomerase 2-alpha (TOP2A, Homo sapiens, UniProt P11388); DNA relaxation; 10 µM, replicate 2).
`[Co+2]`: “relative specific activity” 0.55 (uncharacterized protein (Bacteroides thetaiotaomicron, UniProt Q8A4G9); phosphatase activity, activator, phosphate release; 5 mM, EDTA-treated enzyme, together with: substrate 9 mM; reference: activity with Mg2+).
`COc1ccc([C@@H](O)c2cc(-c3ncnc4cc(N5CCOCC5)ccc34)c(F)cc2Cl)nn1` — result for “injury poisoning procedural TEAE”: 33% (locally advanced rectal cancer patients; 150 mg, together with: capecitabine and radiotherapy).
Under “subjects with adverse event”, `C[C@H]1O[C@@H](O[C@H]2[C@@H](O)C[C@H](O[C@H]3[C@@H](O)C[C@H](O[C@H]4CC[C@@]5(C)[C@H](CC[C@@H]6[C@@H]5C[C@@H](O)[C@]5(C)[C@@H](C7=CC(=O)OC7)CC[C@]65O)C4)O[C@@H]3C)O[C@@H]2C)C[C@H](O)[C@@H]1O` is recorded as 0% (refers to: injury, poisoning, procedural complications; healthy men; oral, dose not given, 8 days, treatment-emergent, crossover trial).
`CO/N=C(\C(=O)N[C@@H]1C(=O)N2C(C(=O)O)=C(COC(C)=O)CS[C@H]12)c1csc(N)n1` gave an MIC of 16 mg/L (≈ 35.1 µM) (Stenotrophomonas maltophilia; broth microdilution; clinical isolate RKI-No 729/15).
